Published values collected from several papers.
A part holds a random share of what one study measured.

Block 1 — technique: RNA Bind-n-Seq; form: RNA; matrix: in vitro; concentration: 365 nM; relative to: no-protein control; reading: higher = stronger binding
Target: RNA binding protein fox-1 homolog 2, RRM domain, GST-SBP tag (RBFOX2, Homo sapiens, UniProt O43251-10, residues 100-194)
Notes: natural RNA segment, single round, ends assumed
Shared flanks, not repeated: GGGAGUUCUACAGUCCGACGAUC … UGGAAUUCUCGGGUGCCAA
Target sequence (chain): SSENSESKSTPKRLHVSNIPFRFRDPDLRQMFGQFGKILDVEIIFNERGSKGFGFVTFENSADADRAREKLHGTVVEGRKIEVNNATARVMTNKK
| Strand | RBNS enrichment (R) |
| --- | --- |
| CCAAUUAUAAGUGUAGCCAUUUUUAAAAAGCAUUUAUAUGACCAGUCUUUUUCCCCUCAACCUGUGGUAUUUGCAGAUGACAACUUUGAAAAUAAAGCAGUCUCGGGCAG | 0.56 |
| CUUGGCACUGAUGGGCACUGGAAAACAUAGAGUAGACCUGAGAUGCUGGUCAAGCCCCCUUUGAUUGAGUUCAUCAUGAGCCGUUGCUAAUGCCAGGCCAGUAAAAGUAU | 0.606 |
| AUAUCCUGUGGUGAUUAUGUAUAAUGAAACAGUCUUAUUUUGUGCUCUUUGGUUUCUUAAAAGGAAAGCUUGUUUUCUUUCCUUUAUCAUUACAGAGGUAUGUCUUUGGU | 0.827 |
| UCAUUCGAUUGCUAUUUGAGACUUUUAAAUUAAGGUAAAGGCUGCUGGUGUUGGUACCUGUGGAUUUUUCUAUACUGAUGUUUUCGUUUUGCCAAUAUAAUGAGUAUUAC | 0.701 |
| CCCCCUGCUCUGCCCUCCACGGAAUUGGAUUCCAAGGGCUGUUCCAGACAACUGCCAACGUCACUGAGGGCCCUGCUCUGAAGCCCUGGGCCCUGGCUCCAUUAACCUAA | 0.388 |
| GGUCCAUUUAAAGAGGAAAUUACAUUGUUACUCUUCUUGAUCUCCUCAGGCUAUGUAAGUCUGAAGUACUGUUCUUCUCCACUAAGUAAUACCCAACUAAUUUCCAUUUA | 0.283 |
| UGGGAAUGGGAGAGGGGCAAGCUGGCCAUACAGGGGACAUGGUCAUUCUCCGAGCCAGCUGUGUUUUACACAAAGCUGUACAAUUGUUAUUGGUUGAGGUCACAAAGAUG | 1.3 |
| CUGUCACAUCUGUGUCAUGUUGUUAUUUGAAGCAUCAGACUUUAUUACUAUGCUAGGUCCUCACUACUGCCCCCUGCAGGCUGGGGAAAGGGAACUUUUUGUCUACGCUA | 0.346 |

Block 2 — technique: universal PBM; form: double-stranded DNA, one strand shown; matrix: in vitro; concentration: 600 nM; reading: higher = stronger binding
Target: Sal-like protein 4, full length isoform A (SALL4, Homo sapiens, UniProt Q9UJQ4, residues 1-1053)
Sequence of UniProt Q9UJQ4 (whole entry, looked up): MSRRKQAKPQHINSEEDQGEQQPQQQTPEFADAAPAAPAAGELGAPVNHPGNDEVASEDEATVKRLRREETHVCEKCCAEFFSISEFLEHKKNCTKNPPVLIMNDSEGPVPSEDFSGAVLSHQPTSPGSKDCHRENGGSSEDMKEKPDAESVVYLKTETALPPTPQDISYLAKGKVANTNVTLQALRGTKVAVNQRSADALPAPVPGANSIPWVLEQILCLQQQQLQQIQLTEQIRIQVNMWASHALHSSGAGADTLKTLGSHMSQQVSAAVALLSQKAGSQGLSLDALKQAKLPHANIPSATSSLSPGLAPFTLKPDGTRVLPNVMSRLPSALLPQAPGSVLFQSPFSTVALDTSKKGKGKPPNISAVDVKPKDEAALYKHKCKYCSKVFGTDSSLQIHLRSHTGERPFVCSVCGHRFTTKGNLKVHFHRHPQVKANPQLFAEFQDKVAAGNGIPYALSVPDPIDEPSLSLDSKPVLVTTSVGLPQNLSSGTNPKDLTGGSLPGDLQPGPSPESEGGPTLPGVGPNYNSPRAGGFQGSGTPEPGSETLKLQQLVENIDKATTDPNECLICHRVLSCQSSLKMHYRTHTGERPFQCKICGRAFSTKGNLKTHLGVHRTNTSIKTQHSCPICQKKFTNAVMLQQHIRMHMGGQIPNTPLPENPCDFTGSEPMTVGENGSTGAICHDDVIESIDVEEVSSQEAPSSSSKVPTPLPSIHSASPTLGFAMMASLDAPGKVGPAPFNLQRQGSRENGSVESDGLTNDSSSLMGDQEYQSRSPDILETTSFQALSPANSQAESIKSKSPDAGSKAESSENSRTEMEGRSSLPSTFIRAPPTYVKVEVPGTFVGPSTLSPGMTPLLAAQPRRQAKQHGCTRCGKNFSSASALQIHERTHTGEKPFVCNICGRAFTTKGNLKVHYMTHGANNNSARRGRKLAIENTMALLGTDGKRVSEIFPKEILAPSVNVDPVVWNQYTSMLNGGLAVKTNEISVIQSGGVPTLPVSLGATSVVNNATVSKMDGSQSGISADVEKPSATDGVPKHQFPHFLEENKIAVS
Notes: 8-mer, flanks averaged, mean of replicates
| Strand | E-score |
| --- | --- |
| GATAGTAA | 0.178 |
| GTCTGCTA | -0.0377 |
| TATACTGA | 0.318 |
| GGTCAGAC | -0.246 |
| CGTGGGAA | -0.133 |
| AATCGTCA | 0.147 |
| AAGTTTGT | 0.152 |
| TCTGCCAA | 0.0193 |
| AGACCACG | -0.303 |
| AGACTCTA | 0.0806 |
| AGTCGCTA | -0.0554 |
| ATGAACCC | -0.0368 |
| AATCCTGG | -0.112 |
| CAGGTGAG | -0.208 |
| GTTTTCCA | 0.217 |
| AAGTGTAC | 0.0716 |
| GGGGCGGA | -0.264 |
| GTACCGCA | -0.121 |
| GCATCTCC | -0.222 |
| CGGAAAAG | -0.117 |
| GACACACA | 0.128 |
| ATCCCCCA | -0.137 |
| CCCACTCA | 0.0333 |
| AACGTCAT | 0.232 |
| CGGATCTA | 0.00188 |

Block 3 — technique: protein binding microarray; form: double-stranded DNA, one strand shown; matrix: in vitro; concentration: not given; relative to: not given; reading: higher = stronger binding
Target: Histone acetyltransferase KAT6A, winged helix 1, GST fusion (KAT6A, Homo sapiens, UniProt Q92794, residues 1-85)
Notes: 8-mer, flanks averaged, mean of 2 arrays, mostly near background
Target sequence (chain): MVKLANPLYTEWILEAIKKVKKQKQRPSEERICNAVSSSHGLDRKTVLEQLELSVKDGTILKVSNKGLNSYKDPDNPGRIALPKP
| Strand | E-score |
| --- | --- |
| CATCAGCC | -0.0811 |
| ACAATGGG | -0.173 |
| CCTACATA | -0.161 |
| CACCGTCC | 0.25 |
| ACTGCAAA | -0.195 |
| ACTGCAGT | -0.17 |
| ACGCGACA | 0.246 |
| AATATCAA | -0.18 |
| ACAAAGCA | -0.0362 |
| CCGGAAAA | 0.197 |
| CAGTTGGG | -0.219 |
| ACGGGGAA | 0.166 |
| AGATAGTG | -0.228 |
| CATTTAGG | -0.0886 |
| AGGTCAGC | -0.0251 |
| ACAAATGC | -0.109 |
| CCGTAAGG | 0.247 |
| AAAAGTTC | -0.161 |
| CCGTCAGC | 0.303 |
| GGACGGCA | 0.317 |
| CCACTAGA | -0.194 |
| CTAGTACA | -0.0891 |
| CGTTCCTC | 0.0264 |
| GCTTGGGA | -0.182 |
| ACAGTCAC | -0.132 |

Block 4 — technique: RNA Bind-n-Seq; form: RNA; matrix: in vitro; concentration: 1 µM; notes: whole 134-nt RNA, ends assumed; with: 150 mM KCl; relative to: input library; reading: higher = stronger binding
Target: Ras GTPase-activating protein-binding protein 1, RRM domain (G3BP1, Homo sapiens, UniProt Q13283)
Sequence of UniProt Q13283 (whole entry, looked up): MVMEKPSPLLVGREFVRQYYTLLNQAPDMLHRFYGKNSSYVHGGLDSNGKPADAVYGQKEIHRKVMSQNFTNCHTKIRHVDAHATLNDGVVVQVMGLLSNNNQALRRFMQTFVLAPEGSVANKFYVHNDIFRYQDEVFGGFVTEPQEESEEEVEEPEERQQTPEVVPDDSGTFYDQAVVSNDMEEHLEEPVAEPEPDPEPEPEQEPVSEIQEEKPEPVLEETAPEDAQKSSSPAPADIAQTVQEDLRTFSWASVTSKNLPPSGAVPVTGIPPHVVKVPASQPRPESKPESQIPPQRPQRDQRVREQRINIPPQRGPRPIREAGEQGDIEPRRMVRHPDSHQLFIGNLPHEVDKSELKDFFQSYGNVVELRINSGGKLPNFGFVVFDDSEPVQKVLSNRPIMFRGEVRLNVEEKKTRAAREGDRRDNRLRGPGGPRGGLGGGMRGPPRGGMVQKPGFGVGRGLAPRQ
Shared flanks, not repeated: GGGAGUUCUACAGUCCGACGAUC … UGGAAUUCUCGGGUGUCAAGG
| Strand | log2 enrichment |
| --- | --- |
| UCCUGUGCUACACAUCGUAUGUACCGAAUCGGGGAAAAAAGGGAAAAAAGGAAAAAAGGAAAGUAUUAUGUUACGCCGUUCGGAUCUGCA | 0.104 |
| UGGGAGGUGGAUUUUGUUUAUUUUUUUAGCUCAUUUCCAGGGGUGGGAAUUUUUUUUUAAUAUGGGUCAUGAAUAAAGUUGUUUUUGAAA | 1.66 |
| UGGGAGGUGGAUUUUGGUUAUUUUUUUAGCUCAUUUCCAGGGGUGGGAAUUUUUUUUUAAUAUGUGUCAUGAAUAAAGUUGUUUUUGAAA | 1.79 |
| UAACUUUAGAGGAGGAUCUGAUGGAUAUGGCAGUGGACGUGGAUUUGGGGAUGGCUAUAAUGGGUAUGGAGGAGAACCUGGAGGUGGCAA | -0.424 |
| UUCCUUUCCGUUGUGUGUUUUAAAGGUGUGUGCCCUCUUCCUGAUUCUGGAGAAAAAUGCCGGUCCGGAAGCAAGGUGAGAGUUUAUUCC | -0.101 |
| ACCAAACAGGUGGGCAUCUUUGGGAAGUGGGGCAAGGGGGGGAUAGGGAGGGGGGUAACACUUUGGGAACAGGUGGUCCCAGGUCGUUUC | -0.222 |
| CUGUGCUACACAUCGUAUGUACCGAAUCGGGUUUUUUUGGGGUUUUUUUGGGUUUUUUUGGAAAGUAUUAUGUUACGCCGUUCGGAUCUG | -0.0594 |
| GUCCUGUGCUACACAUCGUAUGUACCGAAUCGGCCCCCGGGGCCCCCGGGCCCCCGGGGAAAGUAUUAUGUUACGCCGUUCGGAUCUGCA | -0.618 |
| GUCCUGUGCUACACAUCGUAUGUACCGAAUCGGGGUGGGGUUUUUUUGGGGUUUGGGGAAAGUAUUAUGUUACGCCGUUCGGAUCUGCAC | 0.674 |

A few entries again (block 3):
| Strand | E-score |
| --- | --- |
| ACGCGACA | 0.246 |
| CTAGTACA | -0.0891 |
| ACAATGGG | -0.173 |
| GGACGGCA | 0.317 |
| ACGGGGAA | 0.166 |
